Measurements of several laboratories.
Several values in a cell are separate wells, animals, samples, runs or records.
Target: Ephrin type-A receptor 2 (EPHA2, Homo sapiens, UniProt P29317)

SMILES = CCNc1nc(Nc2cccc(S(=O)(=O)NC)c2)ncc1-c1ccc(F)c(OC)c1; test = binding, SPR; endpoint = residence time; result = 0.05 min
SMILES = O=C(Nc1ccc(Oc2ncnc3[nH]cc(-c4ccccc4)c23)c(F)c1)c1c2n(n(-c3cc(F)ccc3F)c1=O)CCCC2; test = enzyme activity, inhibitor; setting = 0.5 µM; endpoint = inhibition; result = 10%
SMILES = Cc1cccc(O[C@H]2CCC[C@@H](C(C)CNCc3ccncc3)C2)c1 (relative stereo); test = cell-free assay; setting = 10 µM; endpoint = inhibition; result = -3%
SMILES = C=CC(=O)N1CCCC(n2c(=O)c3ncccc3n(Cc3ccc(Oc4ccccc4)cc3)c2=O)C1 (stereo not drawn); test = cell-free assay, competition with immobilised ligand; setting = 1 µM; endpoint = remaining binding; result = 100%
SMILES = CNC(=O)C[C@H](Cc1ccc(C#N)cc1)NC(=O)c1cc(-c2ccc(CN[C@H](C)c3ccc(C)cc3)o2)ccc1Cl; test = enzyme activity, inhibitor; setting = 1 µM; endpoint = activity vs control; result = 114%
SMILES = CNC(=O)C1CCN(c2cc(C)c(F)cc2NC(=O)c2ccc(-c3cc(O)ccc3C)c(C)c2)CC1; test = binding, competition with immobilised ligand; setting = 1 µM; endpoint = remaining binding; result = 5.4%
SMILES = Nc1ncc2c(n1)-c1c([nH]c3ccc(C4=CCOCC4)cc13)CCC2; test = binding, competition with immobilised ligand; setting = 1 µM; endpoint = remaining binding; result = 87%
SMILES = NC(=O)[C@@H](O)C[C@H]1CCc2sc3ncnc(O[C@H]4CC[C@H](N5CCOCC5)CC4)c3c21; test = enzyme activity, inhibitor; setting = 10 µM; endpoint = inhibition; result = 15%
SMILES = CCN1CCN(Cc2ccc(NC(=O)c3ccc(C)c(NC(=O)c4cncc(-c5cccs5)c4)c3)cc2C(F)(F)F)CC1; test = binding, competition with immobilised ligand; setting = 1 µM; endpoint = remaining binding; result = 1.5%
SMILES = Cc1ccc(-c2c(/C=C(\C#N)C(=O)NC(C)C)n(CCCO)c3ncnc(N)c23)cc1; test = cell-free assay, competition with immobilised ligand; setting = 1 µM; endpoint = remaining binding; result = 100%
SMILES = Cc1cccc(-c2ccc3nc(NC(=O)C4CCCCC4)nn3c2)c1; test = enzyme activity, Dundee kinase panel; setting = 10 µM; endpoint = remaining activity; result = 94%
SMILES = CN1CCN(Cc2ccc(-c3ccc(CO[C@H]4CCC[C@@H]4NC(=O)c4cc(-c5cnn(C)c5)cnc4N)cc3)cc2)CC1; test = enzyme activity, inhibitor; setting = 0.1 µM; endpoint = inhibition; result = 1%
SMILES = O=C=[N][Ru-4]123([n]4c5ccc(O)cc5c5c6c(c7cc(F)c[n+]1c7c54)C(=O)NC6=O)[S+]1CC[S+]2CC[S+]3CC1 (stereo not drawn); test = enzyme activity; setting = 100 nM, human enzyme, with: 10 µM ATP; how to read = relative to: untreated; endpoint = remaining activity; result = 97%
SMILES = CN1CCN(c2ccc(Nc3ncc(Cl)c(Nc4ccccc4P(C)(C)=O)n3)cc2Br)CC1; test = enzyme activity, inhibitor; setting = 0.1 µM; endpoint = inhibition; result = 0%
SMILES = COc1ccc(NC(=O)Nc2ccc3c(c2)C(=O)N(C(C)CO)CC(C)C(CN(C)Cc2ccc4c(c2)OCO4)O3)cc1 (stereo not drawn); test = kinase activity, KinaseProfiler; setting = 0.03 µM, species human; how to read = relative to: control; endpoint = remaining activity; result = 90%
SMILES = COc1cc(OC)c(F)c(/C=C/c2cnc3ccn(S(=O)(=O)c4cn(CCF)cn4)c3n2)c1F; setting = 1000 nM; endpoint = inhibition; result = 0%
SMILES = Nc1nc(Nc2ccccc2)sc1C(=O)c1ccccc1; test = enzyme activity, inhibitor; setting = 10 µM; endpoint = remaining activity; result = 77%
SMILES = Cc1cccc(-c2ccc3nc(NC(=O)C4CCOCC4)nn3c2)c1; test = enzyme activity, Dundee kinase panel; setting = 10 µM; endpoint = remaining activity; result = 93%
SMILES = COc1ccc(O)cc1-c1c[nH]c2ncc(-c3cncc(C(=O)N(C)C)c3)cc12; test = binding, competition with immobilised ligand; setting = 0.2 µM; endpoint = inhibition; result = 0.96%
SMILES = C=CC(=O)N1Cc2nc(-c3cc(-c4cc(Cl)cnc4Cl)c(F)cc3F)n(-c3ccncn3)c2C1; test = cell-free assay; setting = 1 µM; endpoint = inhibition; result = 4.6%
SMILES = COc1cc(Nc2nccc(-c3cnn4nc(OC)ccc34)n2)cc(C(F)(F)F)c1; test = binding, competition with immobilised ligand; setting = 1 µM; endpoint = remaining binding; result = 94%
SMILES = C=CC(=O)Nc1cccc(-c2cnc3[nH]cc(C(=O)NC(C)(C)C)c3n2)c1; test = kinase activity; setting = 0.1 µM; endpoint = inhibition; result = -2% and -3%
SMILES = c1ccc2c(Nc3cc(C4CCC4)[nH]n3)nc(Nc3ccc4nc[nH]c4c3)nc2c1; test = enzyme activity, inhibitor; setting = 0.25 µM; endpoint = remaining activity; result = 22%
SMILES = CN1CCN(Cc2ccc(NC(=O)c3cccc(C#Cc4cnc(N)c5ncccc45)c3)cc2C(F)(F)F)CC1; test = cell-free assay, competition with immobilised ligand; setting = 0.5 µM; endpoint = remaining binding; result = 3.3%

Repeated from above:
SMILES = C=CC(=O)N1CCCC(n2c(=O)c3ncccc3n(Cc3ccc(Oc4ccccc4)cc3)c2=O)C1 (stereo not drawn); test = cell-free assay, competition with immobilised ligand; setting = 1 µM; endpoint = remaining binding; result = 100%
